Published values pooled from the literature.
Each line is one published result; not all experiments were run side by side. Numbers after ± are the reported error.
Target: Adenosine receptor A2a (ADORA2A, Homo sapiens, UniProt P29274)

Structure (SMILES)	assay	system	setting	endpoint	result
Cc1csc(-c2coc3cc(OCC(=O)O)cc(C)c3c2=O)n1	radioligand displacement	–	with: [3H]ZM241385	ligand efficiency	0.33
CN(C(=O)n1cnc(-c2ccc[n+]([O-])c2)c1)C1CCCCC1	–	–	concentration not given	inhibition	-2.48%
COc1ccc(N2CC(C(=O)NC(Cc3ccccc3)C(=O)O)CC2=O)cc1 (stereo not shown)	radioligand displacement	–	with: [3H]ZM241385	ligand efficiency	0.27
Cc1ccc(C(=O)Nc2nc3ccccc3[nH]2)cc1C	binding, radioligand competition	–	10 µM, with: [3H]ZM241385	displacement	16 ± 4%
CSc1nc2nc3c(c(O)n2n1)CN(Cc1ccccc1)CC3	radioligand displacement	–	with: [3H]ZM241385	ligand efficiency	0.36
CSc1ccc(CNc2nc3ccccc3n3cnnc23)cc1	binding, radioligand competition	–	30 µM, with: [3H]ZM241385	displacement	20 ± 4%
CCN1/C(=C/C(C)=O)Sc2ccc(F)cc21	binding	–	10 µM	inhibition	22.2%
COc1cccc(Cn2c(=O)n(CC3CC3)c(=O)c3c2nc2cc(OC)ccn23)c1	radioligand binding	CHO cell membranes	1 µM, with: [3H]ZM241385	displacement	24%
Cc1ccc(C(=O)Nc2nc3ccccc3[nH]2)cc1	binding, radioligand competition	–	10 µM, with: [3H]ZM241385	displacement	21 ± 4%
CNC(=O)[C@@]12C[C@@H]1[C@@H](n1cnc3c(NCCc4ccc(O)c(OC)c4)nc(C#Cc4ccc(Cl)s4)nc31)[C@H](O)[C@@H]2O	binding, radioligand binding	–	concentration not given	activity class	inactive
